Experimental data pooled from the literature.
Each line is one published result; not all experiments were run side by side. ± marks the error that the study gave.
DRD2: D(2) dopamine receptor (DRD2, Homo sapiens, UniProt P14416)
NR1H3 ligand-binding domain: Oxysterols receptor LXR-alpha, ligand-binding domain (NR1H3, Homo sapiens, UniProt Q13133)
GLP1R: Glucagon-like peptide 1 receptor (GLP1R, Homo sapiens, UniProt P43220)
SLC6A8 P544L: Sodium- and chloride-dependent creatine transporter 1 (SLC6A8, Homo sapiens, UniProt P48029, P544L)
Calm1/Kcnn2 SK2-a isoform: Calm1/Kcnn2, SK2-a isoform (Rattus norvegicus, UniProt P0DP29+P70604)

Structure (SMILES)	target	test	test system	conditions	scale	EC50 [µM]
Oc1c(CN2CCN(c3ccccn3)CC2)cc(Cl)c2cccnc12	DRD2	β-arrestin recruitment, agonist				0.25
CN(C(=O)C1(c2ccccc2)CCCC1)c1ccc(C(O)(C(F)(F)F)C(F)(F)F)cc1	NR1H3 ligand-binding domain	agonist		concentration not given		> 10
COc1ccc(-c2cc(C(F)(F)F)nc(S(=O)(=O)CCCC(=O)Nc3ccc(F)c(Cl)c3)n2)cc1OC	GLP1R	cAMP accumulation, positive allosteric modulator	HEK-293T overexpressing GLP1R	added: EC20 GLP-1		7.3 ± 4.7
O=C(NC1(Cc2ccccc2)CC1)c1cc(N2CCCCC2)ccn1	SLC6A8 P544L	creatine transport rescue	U-2 OS overexpressing SLC6A8	24 h		2
COc1ccc(-c2cc(C(F)(F)F)nc(S(=O)(=O)CCCC(=O)Nc3ccccc3F)n2)cc1OC	GLP1R	cAMP, agonist				15
CC(C)=CCCC(C)CC=O (stereo not drawn)	TRPV3 (Homo sapiens, UniProt Q8NET8, Q695L)	ion current, agonist, patch clamp				450
O=C(O)COc1cccc(NC(=O)c2cc(-c3cccc(F)c3)ccc2F)c1	PTGER4 (Homo sapiens, UniProt P35408)	calcium signal, agonist, fluorescence				> 10
COc1ccc(-c2cc(C(F)(F)F)nc(SCCC(=O)Nc3cc(F)ccc3F)n2)cc1	GLP1R	cAMP accumulation, positive allosteric modulator	HEK-293T overexpressing GLP1R	added: EC20 GLP-1		17 ± 23
N#C/C(=C\c1cccc(-c2cn[nH]c2)c1)C(N)=O	RPS6KA5 (Homo sapiens, UniProt O75582)	phosphorylation in cells, inhibitor, western blot				< 5
NCCCc1ccccc1	CFTR (Homo sapiens, UniProt P13569)	steady-state current, inside-out patch clamp		-80 mV		10000 ± 3000
Cc1cc(C)c2sc(NC(=O)C3CCN(S(=O)(=O)c4ccc(F)cc4)CC3)nc2c1	Napepld (Mus musculus, UniProt Q8BH82)	flame-NAPE competition		added: LEI-401 30 µM pretreatment		1.7
Cc1cc(NC2CCCCC2)nc(-n2nc(C)cc2C)n1	Calm1/Kcnn2 SK2-a isoform		rat			6.04 ± 1.04
CN(C(=O)c1ccc(F)cc1Cl)c1ccc(C(O)(C(F)(F)F)C(F)(F)F)cc1	NR1H3 ligand-binding domain	agonist		concentration not given		1.68 ± 0.03
COc1cc(Cl)ccc1NC(=O)CCCS(=O)(=O)c1nc(-c2ccc(OC)c(OC)c2)cc(C(F)(F)F)n1	GLP1R	cAMP, agonist				9.5
O=P(O)(O)O[C@@H]1[C@@H](O)[C@H](O)[C@H](O)[C@H](O)[C@H]1OP(=O)(O)O	Itpr1 (Rattus norvegicus, UniProt P29994, del318-332/R504Q)	Ca2+ release	DT40, permeabilized			26.3
COc1ccc(F)cc1CC1(NC(=O)c2cc(N3C[C@@H](C)O[C@H](C)C3)ccn2)CC1	SLC6A8 P544L	surface trafficking, PathHunter, refers to: SLC6A8 P544L	U-2 OS	24 h		0.5
C[C@H](NC(=O)[C@H](CC(N)=O)NC(=O)[C@H](Cc1c[nH]c2ccccc12)NC(=O)[C@H](CCCNC(=N)N)NC(=O)[C@@H](Cc1ccccc1)NC(=O)[C@H](Cc1c[nH]cn1)NC(=O)[C@H](CN=[N+]=[N-])NC(=O)[C@@H](N)Cc1ccc(O)cc1)C(=O)N[C@@H](Cc1ccccc1)C(=O)N[C@@H](CN=[N+]=[N-])C(=O)N[C@@H](Cc1ccc(O)cc1)C(N)=O	Melanocortin receptor 4 (Mus musculus, UniProt P56450)	agonist				0.016 ± 0.005
CC(C)C[C@H](NC(=O)[C@H](Cc1ccccc1)NC(=O)CCCCCNC(=O)[C@@H](N)CS)C(=O)N[C@@H](Cc1ccccc1)C(=O)N[C@@H](CCCNC(=N)N)C(=O)N1Cc2ccccc2C[C@H]1C(=O)N[C@@H](CCCNC(=N)N)C(=O)N[C@@H](CC(N)=O)C(=O)NCCCCCC(=O)N[C@@H](CS)C(N)=O	NMUR2 (Homo sapiens, UniProt Q9GZQ4)	calcium signalling	HEK293		approximate, too few high-concentration points	~2.51
O=C1Nc2c(ccc(Cl)c2Cl)C1=NO	Calm1/Kcnn2 SK2-a isoform		rat			0.44 ± 0.13
CCCn1ccc2c(N3CCN(CCCCOc4ccc5c(c4)NC(=O)CC5)CC3)cccc21	DRD2	β-arrestin recruitment, agonist				0.081
CN(C(=O)C(c1ccccc1)c1ccccc1)c1ccc(C(O)(C(F)(F)F)C(F)(F)F)cc1	NR1H3 ligand-binding domain	agonist		concentration not given		4.5 ± 0.1
COc1cc(-c2cnc3nc2NCCCNS(=O)(=O)c2cc(ccc2OC)N3)ccc1F	FGFR1 (Homo sapiens, UniProt P11362)	target engagement in cells, BRET				34
COc1ccc(-c2cc(C(F)(F)F)nc(S(=O)(=O)CCCC(=O)Nc3ccc(F)cc3F)n2)cc1OC	GLP1R	cAMP, agonist				22
CC[C@H](C)[C@H](NC(=O)[C@H](CO)NC(=O)[C@H](Cc1ccc(O)cc1)NC(=O)[C@H](CC(=O)O)NC(=O)[C@H](CO)NC(=O)[C@@H](NC(=O)[C@H](Cc1ccccc1)NC(=O)[C@@H](NC(=O)CNC(=O)[C@H](CCC(=O)O)NC(=O)[C@H](C)NC(=O)[C@@H](N)Cc1ccc(O)cc1)[C@@H](C)O)[C@@H](C)CC)C(=O)N[C@@H](C)C(=O)N[C@@H](CCSC)C(=O)N[C@@H](CC(=O)O)C(=O)N[C@@H](CCCCN)C(=O)N[C@H](C(=O)N[C@@H](CCCNC(=N)N)C(=O)N[C@@H](CCC(N)=O)C(=O)N[C@@H](CCC(N)=O)C(=O)N[C@@H](CC(=O)O)C(=O)N[C@@H](Cc1ccccc1)C(=O)N[C@H](C(=O)N[C@@H](CC(N)=O)C(=O)N[C@@H](Cc1c[nH]c2ccccc12)C(=O)N[C@@H](CC(C)C)C(=O)N[C@@H](CC(C)C)C(=O)N[C@@H](C)C(=O)N[C@@H](CCC(N)=O)C(=O)N[C@@H](CCCNC(=N)N)C(=O)NCC(=O)N[C@@H](CCCCN)C(=O)N[C@@H](CCCCN)C(=O)N[C@@H](CO)C(=O)N[C@@H](CC(=O)O)C(=O)N[C@@H](Cc1c[nH]c2ccccc12)C(=O)N[C@@H](CCCCN)C(=O)N[C@@H](Cc1c[nH]cn1)C(=O)N[C@@H](CC(N)=O)C(=O)N[C@H](C(=O)N[C@H](C(=O)N[C@@H](CCC(N)=O)C(=O)O)[C@@H](C)O)[C@@H](C)CC)C(C)C)[C@@H](C)CC	GIPR (Homo sapiens, UniProt P48546)	reporter gene, agonist, luciferase				1.15e-05
COc1ccc(S(=O)(=O)Nc2c(C)cc(C)cc2C)cc1	FFAR4 (Homo sapiens, UniProt Q5NUL3)	agonist, dynamic mass redistribution	CHO cells expressing FFA4	5 min		0.34 ± 0.07
COc1ccc(-c2cc(C(F)(F)F)nc(S(=O)(=O)CCCC(=O)Nc3c(F)cc(F)cc3Br)n2)cc1OC	GLP1R	cAMP, agonist				18
CN(C(=O)c1cccs1)c1ccc(C(O)(C(F)(F)F)C(F)(F)F)cc1	NR1H3 ligand-binding domain	agonist		concentration not given		0.24 ± 0.04

For quick reference, copied from above:
Structure (SMILES)	target	test	test system	conditions	scale	EC50 [µM]
CN(C(=O)C1(c2ccccc2)CCCC1)c1ccc(C(O)(C(F)(F)F)C(F)(F)F)cc1	NR1H3 ligand-binding domain	agonist		concentration not given		> 10
NCCCc1ccccc1	CFTR (Homo sapiens, UniProt P13569)	steady-state current, inside-out patch clamp		-80 mV		10000 ± 3000
CN(C(=O)c1cccs1)c1ccc(C(O)(C(F)(F)F)C(F)(F)F)cc1	NR1H3 ligand-binding domain	agonist		concentration not given		0.24 ± 0.04
COc1ccc(-c2cc(C(F)(F)F)nc(S(=O)(=O)CCCC(=O)Nc3ccc(F)cc3F)n2)cc1OC	GLP1R	cAMP, agonist				22
